Assay results collected from several papers.
Lines come from different studies, so protocols differ.
Organism: Pseudomonas aeruginosa

| SMILES | test | test system | conditions | MIC |
| --- | --- | --- | --- | --- |
| C#CCOc1ccc(CN[C@@]2(C)C[C@H](O[C@H]3[C@H](Oc4c5cc6cc4Oc4ccc(cc4Cl)[C@@H](O)[C@@H](NC(=O)[C@@H](CC(C)C)NC)C(=O)N[C@@H](CC(N)=O)C(=O)N[C@H]6C(=O)N[C@H]4C(=O)N[C@H](C(=O)N[C@H](C(=O)O)c6cc(O)cc(O)c6-c6cc4ccc6O)[C@H](O)c4ccc(c(Cl)c4)O5)O[C@H](CO)[C@@H](O)[C@@H]3O)O[C@@H](C)[C@H]2O)cc1OC | broth microdilution | ATCC 10145, cation-adjusted Mueller-Hinton broth | 18 to 20 h, 37 °C, 0.002% polysorbate 80 | > 128 µg/mL |
| N=C(N)NCCC[C@@H]1NC(=O)[C@H](CCCNC(=N)N)NC(=O)[C@H](CCCNC(=N)N)NC(=O)[C@@H](CCCNC(=N)N)NC(=O)[C@H](Cc2ccc3ccccc3c2)NC(=O)[C@H](Cc2ccc3ccccc3c2)NC(=O)[C@H](Cc2ccc3ccccc3c2)NC1=O |  | 1188712, multidrug-resistant |  | 16 µg/mL |
| CC[C@H](C)[C@H](NC(=O)[C@@H](CCCNC(=N)N)NC(=O)[C@H](CCCNC(=N)N)NC(=O)[C@@H]1CCCN1C(=O)[C@@H]1CCCN1C(=O)[C@H](CCCNC(=N)N)NC(=O)[C@@H]1CCCN1C(=O)[C@H](CCCNC(=N)N)NC(=O)[C@@H]1CCCN1C(=O)[C@H](CC(C)C)NC(=O)[C@H](Cc1ccc(O)cc1)NC(=O)[C@@H]1CCCN1C(=O)[C@H](Cc1ccccc1)NC(=O)[C@H](CCCCN)NC(=O)[C@H](CC(=O)O)NC(=O)[C@@H](N)C(C)C)C(=O)N[C@@H](Cc1ccc(O)cc1)C(=O)N[C@@H](CC(N)=O)C(=O)N[C@H](CCCNC(=N)N)C(N)=O | broth microdilution | DSM 1117 | 18 h, 37 °C, 25% MHB2 | 128 µg/mL |
| CCCCCCCC(=O)N[C@@H](CCN)C(=O)N[C@H](C(=O)N[C@@H](CCN)C(=O)N[C@H]1CCNC(=O)[C@H]([C@@H](C)O)NC(=O)[C@H](CCN)NC(=O)[C@H](CCN)NC(=O)[C@H](CCCc2ccccc2)NC(=O)[C@@H](Cc2ccccc2)NC(=O)[C@H](CCN)NC1=O)[C@@H](C)O |  | ATCC 27853 |  | 0.125 to 0.25 µg/mL |
| CN[C@H](CC(C)C)C(=O)N[C@H]1C(=O)N[C@@H](CC(N)=O)C(=O)N[C@H]2C(=O)N[C@H]3C(=O)N[C@H](C(=O)N[C@H](C(=O)NCc4cn(CC(=O)N[C@H](C(=O)N[C@@H](CCN)C(=O)N[C@H]5CCNC(=O)[C@H]([C@@H](C)O)NC(=O)[C@H](CCN)NC(=O)[C@H](CCN)NC(=O)[C@H](CC(C)C)NC(=O)[C@@H](CC(C)C)NC(=O)[C@H](CCN)NC5=O)[C@@H](C)O)nn4)c4cc(O)cc(O)c4-c4cc3ccc4O)[C@H](O)c3ccc(c(Cl)c3)Oc3cc2cc(c3O[C@@H]2O[C@H](CO)[C@@H](O)[C@H](O)[C@H]2O[C@H]2C[C@](C)(N)[C@H](O)[C@H](C)O2)Oc2ccc(cc2Cl)[C@H]1O | broth microdilution | ATCC 35218, cation-adjusted Mueller-Hinton broth |  | 6 µM |
| O=[N+]([O-])c1cc(Cl)c2cccnc2c1O | broth microdilution |  | multidrug-resistant clinical isolate | 16 µg/mL |
| CCCC[C@H](NC(=O)[C@H](Cc1ccc(O)cc1)NC(=O)[C@@H]1CCCN1C(=O)[C@@H]1CCCN1C(=O)[C@H](CCCCN)NC(=O)[C@H](CC(=O)O)NC(=O)[C@@H](N)C(C)C)C(=O)N1CCC[C@H]1C(=O)N[C@@H](CCCNC(=N)N)C(=O)N1CCC[C@H]1C(=O)N[C@@H](CCCNC(=N)N)C(=O)N1CCC[C@H]1C(=O)N1CCC[C@H]1C(=O)N[C@@H](CCCNC(=N)N)C(=O)N[C@H](CCCNC(=N)N)C(=O)N[C@H](C(=O)N[C@@H](Cc1ccc(O)cc1)C(=O)N[C@@H](CC(N)=O)C(=O)N[C@H](CCCNC(=N)N)C(N)=O)[C@@H](C)CC | broth microdilution | DSM 1117 | 18 h, 37 °C, 25% MHB2 | 128 µg/mL |
| CC[C@H](C)[C@H](N)C(=O)N[C@@H](CCCNC(=N)N)C(=O)N[C@H](C(=O)N[C@@H](Cc1c[nH]c2ccccc12)C(=O)N[C@@H](CCCCN)C(=O)N[C@@H](CCCCN)C(=O)N[C@H](C(=O)N[C@H](C(=O)N[C@@H](CCCNC(=N)N)C(=O)N[C@@H](CCCCN)C(=O)N[C@@H](Cc1c[nH]c2ccccc12)C(=O)N[C@@H](CCCCN)C(=O)N[C@@H](C)C(=O)N[C@H](C(=O)N[C@@H](Cc1c[nH]c2ccccc12)C(=O)N[C@@H](Cc1c[nH]cn1)C(N)=O)[C@@H](C)CC)C(C)C)[C@@H](C)CC)C(C)C | broth dilution | ATCC 27853 |  | 50 µM |
| CN[C@H](CC(C)C)C(=O)N[C@H]1C(=O)N[C@@H](CC(N)=O)C(=O)N[C@H]2C(=O)N[C@H]3C(=O)N[C@H](C(=O)N[C@H](C(=O)NCc4cn(CCCCC(=O)N[C@H](C(=O)N[C@@H](CCN)C(=O)N[C@H]5CCNC(=O)[C@H]([C@@H](C)O)NC(=O)[C@H](CCN)NC(=O)[C@H](CCN)NC(=O)[C@H](CC(C)C)NC(=O)[C@@H](CC(C)C)NC(=O)[C@H](CCN)NC5=O)[C@@H](C)O)nn4)c4cc(O)cc(O)c4-c4cc3ccc4O)[C@H](O)c3ccc(c(Cl)c3)Oc3cc2cc(c3O[C@@H]2O[C@H](CO)[C@@H](O)[C@H](O)[C@H]2O[C@H]2C[C@](C)(N)[C@H](O)[C@H](C)O2)Oc2ccc(cc2Cl)[C@H]1O | broth microdilution | ATCC 27736, cation-adjusted Mueller-Hinton broth |  | 6 µM |
| CN[C@@H]1[C@H](O)[C@H](NC)[C@H]2O[C@]3(O)[C@H](O[C@@H]2[C@H]1O)O[C@H](C)C[C@H]3NC(=O)Cc1ccccc1 | microbial growth, broth dilution | PAO1 |  | 100 µg/mL |
| CC[C@H](C)[C@H](NC(=O)[C@H](CCCCN)NC(=O)[C@H](CCCCN)NC(=O)[C@H](Cc1ccccc1)NC(=O)[C@H](Cc1ccccc1)NC(=O)[C@H](CCCCN)NC(=O)[C@H](CCCCN)NC(=O)[C@H](Cc1ccccc1)NC(=O)[C@H](CCCNC(=N)N)NC(=O)[C@@H](N)CCCCN)C(=O)N[C@@H](CCCCN)C(=O)N[C@@H](CCCCN)C(=O)N[C@@H](CO)C(=O)N[C@H](C(=O)N[C@@H](CCCCN)C(=O)N[C@@H](CCCCN)C(=O)N[C@@H](CCCNC(=N)N)C(=O)N[C@H](C(=O)N[C@@H](CCCCN)C(=O)N[C@@H](CCCCN)C(=O)N[C@@H](CC(C)C)C(=O)N[C@@H](Cc1ccccc1)C(=O)N[C@@H](CCCCN)C(=O)N[C@@H](CCCCN)C(=O)N1CCC[C@H]1C(=O)N[C@@H](CCCNC(=N)N)C(=O)N[C@H](C(=O)N[C@H](C(=O)N1CCC[C@H]1C(=O)N[C@H](C(=O)N[C@@H](CO)C(=O)N[C@H](C(=O)N1CCC[C@H]1C(=O)N[C@@H](Cc1ccccc1)C(=O)O)[C@@H](C)CC)[C@@H](C)CC)[C@@H](C)CC)C(C)C)C(C)C)C(C)C | broth microdilution | ATCC 27853 | 20 h | 4 µg/mL |
| CC(C)C[C@H](NC(=O)[C@H](CC(C)C)NC(=O)[C@H](CCCCN)NC(=O)[C@H](Cc1ccccc1)NC(=O)[C@@H](NC(=O)[C@H](CCCNC(=N)N)NC(=O)[C@H](CCCCN)NC(=O)[C@H](Cc1c[nH]c2ccccc12)NC(=O)[C@@H](NC(=O)[C@@H](N)CCCNC(=N)N)C(C)C)C(C)C)C(=O)N[C@@H](CCCCN)C(=O)N[C@@H](CCCNC(=N)N)C(=O)N[C@@H](Cc1ccc(O)cc1)C(=O)N[C@@H](Cc1c[nH]c2ccccc12)C(=O)N[C@@H](CCCNC(=N)N)C(N)=O | broth microdilution | 01 |  | 7.5 µg/mL |
| CN[C@H](CC(C)C)C(=O)N[C@H]1C(=O)N[C@@H](CC(N)=O)C(=O)N[C@H]2C(=O)N[C@H]3C(=O)N[C@H](C(=O)N[C@H](C(=O)NCC(N)=O)c4cc(O)cc(O)c4-c4cc3ccc4O)[C@H](O)c3ccc(c(Cl)c3)Oc3cc2cc(c3O[C@@H]2O[C@H](CO)[C@@H](O)[C@H](O)[C@H]2O[C@H]2C[C@](C)(NCc3ccc(OCc4cn(CC(=O)N[C@H](C(=O)N[C@@H](CCN)C(=O)N[C@H]5CCNC(=O)[C@H]([C@@H](C)O)NC(=O)[C@H](CCN)NC(=O)[C@H](CCN)NC(=O)[C@H](CC(C)C)NC(=O)[C@@H](CC(C)C)NC(=O)[C@H](CCN)NC5=O)[C@@H](C)O)nn4)c(OC)c3)[C@H](O)[C@H](C)O2)Oc2ccc(cc2Cl)[C@H]1O | broth microdilution | ATCC 13883, cation-adjusted Mueller-Hinton broth |  | 6 µM |
| CC[C@H](C)[C@H](NC(=O)[C@@H](CCCNC(=N)N)NC(=O)[C@H](CCCNC(=N)N)NC(=O)[C@@H]1CCCN1C(=O)[C@@H]1CCCN1C(=O)[C@H](CCCNC(=N)N)NC(=O)[C@@H]1CCCN1C(=O)[C@H](CCCNC(=N)N)NC(=O)[C@@H]1CCCN1C(=O)[C@H](CC(C)C)NC(=O)[C@H](Cc1c[nH]cn1)NC(=O)[C@@H]1CCCN1C(=O)[C@@H]1CCCN1C(=O)[C@H](CCCCN)NC(=O)[C@H](CC(=O)O)NC(=O)[C@@H](N)C(C)C)C(=O)N[C@@H](Cc1ccc(O)cc1)C(=O)N[C@@H](CC(N)=O)C(=O)N[C@H](CCCNC(=N)N)C(N)=O | broth microdilution | DSM 1117 | 18 h, 37 °C, 25% MHB2 | 64 µg/mL |
| C#CCOc1ccc(CN[C@@]2(C)C[C@H](O[C@H]3[C@H](Oc4c5cc6cc4Oc4ccc(cc4Cl)[C@@H](O)[C@@H](NC(=O)[C@@H](CC(C)C)NC)C(=O)N[C@@H](CC(N)=O)C(=O)N[C@H]6C(=O)N[C@H]4C(=O)N[C@H](C(=O)N[C@H](C(=O)N[C@@H](CCCNC(=N)N)C(N)=O)c6cc(O)cc(O)c6-c6cc4ccc6O)[C@H](O)c4ccc(c(Cl)c4)O5)O[C@H](CO)[C@@H](O)[C@@H]3O)O[C@@H](C)[C@H]2O)cc1OC | broth microdilution | ATCC 10145, cation-adjusted Mueller-Hinton broth | 18 to 20 h, 37 °C, 0.002% polysorbate 80 | > 128 µg/mL |
| CCCCCCCC(=O)N[C@@H](CCN)C(=O)N[C@H](C(=O)N[C@@H](CCN)C(=O)N[C@H]1CCNC(=O)[C@H]([C@@H](C)O)NC(=O)[C@H](CCN)NC(=O)[C@H](CCN)NC(=O)[C@H](Cc2cccc(F)c2)NC(=O)[C@@H](CC(C)C)NC(=O)[C@H](CCN)NC1=O)[C@@H](C)O | broth microdilution | PAO1, colistin-susceptible |  | 0.25 to 0.5 µg/mL |

A few entries again:
| SMILES | test | test system | conditions | MIC |
| --- | --- | --- | --- | --- |
| CCCCCCCC(=O)N[C@@H](CCN)C(=O)N[C@H](C(=O)N[C@@H](CCN)C(=O)N[C@H]1CCNC(=O)[C@H]([C@@H](C)O)NC(=O)[C@H](CCN)NC(=O)[C@H](CCN)NC(=O)[C@H](CCCc2ccccc2)NC(=O)[C@@H](Cc2ccccc2)NC(=O)[C@H](CCN)NC1=O)[C@@H](C)O |  | ATCC 27853 |  | 0.125 to 0.25 µg/mL |
